Experimental data collected from several papers.
Parts stem from different laboratories: compare values within a part only. Values joined by “and” are separate records of one study, mostly repeats; a detail may differ.

Set 1
Cell line: HEK-293T
Organism: VSV pseudotyped with SARS-CoV-2 spike
Tested at: 10 µM
Time: 16 h
| SMILES | pseudovirus infection |
| --- | --- |
| c1ccc([C@H]2CN3CCSC3=N2)cc1 | 75.1% |
| CN1CCC(=C2c3ccccc3C=Cc3ccccc32)CC1 | 40.5% |
| CC(C(=O)O)c1cccc(C(=O)c2ccccc2)c1 (stereo not drawn) | 84.9% |

Set 2
Target: Replicase polyprotein 1ab, nsp13 helicase (rep, Severe acute respiratory syndrome coronavirus 2, UniProt P0DTD1)
Mode: inhibitor
Tested at: 20 µM
| Compound | inhibition |
| --- | --- |
| CCC1(C)CC(=O)NC1=O (stereo not drawn) | 3.7% |
| CC(=O)/N=c1/sc(S(N)(=O)=O)nn1C | -2.86% |
| Oc1ccc([C@@H]2Oc3ccc(O)cc3[C@@H]3CCC[C@@H]32)cc1 | -0.28% |
| Fc1ccc(C(OCCN2CCN(C/C=C/c3ccccc3)CC2)c2ccc(F)cc2)cc1 | 2.05% |
| CC[C@@H](C(N)=O)N1CCCC1=O | -2.88% |
| CC1CC(OC(=O)C(O)c2ccccc2)CC(C)(C)N1C (stereo not drawn) | 3.75% |
| CN(CCCN1c2ccccc2CCc2ccccc21)CC(=O)c1ccc(Cl)cc1 | 17.7% |
| O=C(O)c1ccc2nc(-c3cc(Cl)cc(Cl)c3)oc2c1 | 5.94% |
| Nc1c(Br)cc(Br)cc1CN[C@H]1CC[C@H](O)CC1 | 3.22% |
| C[C@H]1Oc2cc(cnc2N)-c2c(nn(C)c2C#N)CN(C)C(=O)c2ccc(F)cc21 | 2.37% and -1.93% |
| C/C(O)=C(\C#N)C(=O)Nc1ccc(C(F)(F)F)cc1 | 7.09% |
| CC1(C)Oc2ccc(C#N)cc2[C@@H](OC2=CC(=O)CC2)[C@@H]1O | -5.97% |
| Cn1cc(C(=O)C(=O)NC2CN3CCC2CC3)c2ccccc21 (stereo not drawn) | 8.94% |
| O=S1(=O)OC(c2ccc(O)cc2)(c2ccc(O)cc2)c2ccccc21 | 2.19% |
| O=[N+]([O-])c1ccc(O)c2ncccc12 | 7.96% |
| Nc1nc2ccc(OC(F)(F)F)cc2s1 | 1.46% |
| CCOC(=O)CCC(=O)O[C@H]1[C@H](O[C@@H]2[C@@H](C)[C@H](O[C@H]3C[C@@](C)(OC)[C@@H](O)[C@H](C)O3)[C@@H](C)C(=O)O[C@H](CC)[C@@](C)(O)[C@H](O)[C@@H](C)C(=O)[C@H](C)C[C@@]2(C)O)O[C@H](C)C[C@@H]1N(C)C | 3.74% |
| OCc1cncc(F)c1 | 1.24% |
| CCCCOC(=O)c1ccccc1Nc1cccc(C(F)(F)F)c1 | 0.12% |
| CN1Cc2ccccc2[C@@H]2c3cccc4[nH]cc(c34)C[C@H]21 | 30% |
| C[C@]12CC[C@H](O)CC1=CC[C@@H]1[C@@H]2CC[C@]2(C)C(c3cccnc3)=CC[C@@H]12 | 5.6% |
| COc1ccnc(C[S+]([O-])c2nc3cc(OC(F)F)ccc3[nH]2)c1OC (stereo not drawn) | -14.8% |
| C=CC(=O)Nc1cc(Nc2nccc(-c3c[nH]c4ccccc34)n2)c(OC)cc1N(C)CCN(C)C | 9.92% |
| CNC(=O)c1ccc2c(c1)S(=O)(=O)c1ccccc1C2=O | 23.4% |

Set 3
Target: Ras GTPase-activating protein-binding protein 1, full length (G3BP1, Homo sapiens, UniProt Q13283)
Chain of UniProt Q13283 (whole entry, looked up): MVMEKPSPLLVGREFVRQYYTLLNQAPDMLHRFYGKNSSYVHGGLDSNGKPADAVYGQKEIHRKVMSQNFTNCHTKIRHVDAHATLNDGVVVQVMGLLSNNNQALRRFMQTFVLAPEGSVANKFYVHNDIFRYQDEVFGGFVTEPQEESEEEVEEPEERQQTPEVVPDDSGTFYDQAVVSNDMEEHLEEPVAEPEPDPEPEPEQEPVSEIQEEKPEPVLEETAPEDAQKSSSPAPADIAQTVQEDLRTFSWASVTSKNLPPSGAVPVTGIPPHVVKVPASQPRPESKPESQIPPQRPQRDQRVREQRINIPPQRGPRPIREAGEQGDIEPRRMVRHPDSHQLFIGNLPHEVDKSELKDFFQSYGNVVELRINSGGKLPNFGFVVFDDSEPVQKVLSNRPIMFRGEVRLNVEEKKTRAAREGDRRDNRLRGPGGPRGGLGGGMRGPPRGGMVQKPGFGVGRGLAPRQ
Technique: RNA Bind-n-Seq
Form: RNA
Sample: in vitro
Tested at: 200 nM
Notes: whole 134-nt RNA, ends assumed
With: 150 mM KCl
Reference: input library
Reading: higher = stronger binding
| Oligonucleotide | log2 enrichment |
| --- | --- |
| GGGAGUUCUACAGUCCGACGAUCCUCAAGUCCUGUGCUACACAUCGUAUGUACCGAAUCGGGAGGGAAAGGGUGGGAAAGUAUUAUGUUACGCCGUUCGGAUCUGCACUUCCAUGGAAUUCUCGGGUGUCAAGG | 1.29 |
| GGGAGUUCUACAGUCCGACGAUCCUCAAGUCCUGUGCUACACAUCGUAUGUACCGAAUCGGGGCGGGGCGGGGCGGGAAAGUAUUAUGUUACGCCGUUCGGAUCUGCACUUCCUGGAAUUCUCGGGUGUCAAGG | 1.33 |
| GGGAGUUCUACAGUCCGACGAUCCCUCAAGUCCUGUGCUACACAUCGUAUGUACCGAAUCGGGAGGGGAGGGGAGGAAAGUAUUAUGUUACGCCGUUCGGAUCUGCACUUCCAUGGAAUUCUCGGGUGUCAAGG | 0.695 |
| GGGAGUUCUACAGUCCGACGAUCCACAGACAACACGCACCCACACAGACACAGAGGGAAGGGGUUGGGAUGGGGACAGGGUGCACAGCAGGGCGGGGUAGGAAAACAGCCCCUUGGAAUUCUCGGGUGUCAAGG | 1.53 |
| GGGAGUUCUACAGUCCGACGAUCAAGUCCUGUGCUACACAUCGUAUGUACCGAAUCGGGUUUGGGGUUUGGGUUUGGGGAAAGUAUUAUGUUACGCCGUUCGGAUCUGCACUUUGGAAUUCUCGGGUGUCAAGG | 0.387 |
| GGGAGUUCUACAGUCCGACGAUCGUCCUGUGCUACACAUCGUAUGUACCGAAUCGGUUUUUGGAAAAAAAGGUUUUUUUGGAAAGUAUUAUGUUACGCCGUUCGGAUCUGCACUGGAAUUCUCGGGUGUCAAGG | -1.29 |
| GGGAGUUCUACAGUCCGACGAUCAGUCCUGUGCUACACAUCGUAUGUACCGAAUCGGGGAGGGGUUUUUUUGGGGUGGGGAAAGUAUUAUGUUACGCCGUUCGGAUCUGCACUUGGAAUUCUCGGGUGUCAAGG | 0.768 |
| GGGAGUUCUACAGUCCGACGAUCUCAAGUCCUGUGCUACACAUCGUAUGUACCGAAUCGGGAAGGAAGGGGAAGGGGAAAGUAUUAUGUUACGCCGUUCGGAUCUGCACUUCCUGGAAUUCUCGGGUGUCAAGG | 0.925 |

Set 4
Target: Interferon regulatory factor 5, full length, phosphomimetic (IRF5, Homo sapiens, UniProt Q13568-2, residues 1-514, K96S/S451D/S453D/S456D/S462D)
Technique: protein-binding microarray
Form: double-stranded DNA, one strand shown
Sample: in vitro
Tested at: 250 nM
Notes: 60-bp whole probe
With: salmon DNA 0.4 mg/ml
Reference: random background probes
Reading: higher = stronger binding
Shared flanks, not repeated: GCCTAGCAC … GTCTTGATTCGCTTGACGCTGCTG
| Oligonucleotide | log fluorescence |
| --- | --- |
| GGTGTTTTCTAAACCATTGTGTGCTAG | 0.508 z-score |
| GATTTTTTAGCTTGCAAAAAGTGCTAG | 0.137 z-score |
| TTAGGACTGGGACTTGGTTAGTGCTAG | -0.671 z-score |
| TTAGATTTTGGGACTGGATTAGTGCTA | 0.159 z-score |
| TTAGATTTCCGACTGGATTAGTGCTAG | 0.0755 z-score |
| GACGGATTGCTTATCCTGACGTGCTAG | -0.424 z-score |
| TTAGGTCGCGGTCTCGGTTAGTGCTAG | 0.334 z-score |
| TTAGATATCAGTTTCGTTTAGTGCTAG | 8.78 z-score |

Set 5
Target: Replicase polyprotein 1ab, main protease (rep, Severe acute respiratory syndrome coronavirus 2, UniProt P0DTD1)
Observed: enzyme activity
Mode: inhibitor
Tested at: 20 µM
Notes: hit confirmation
| Compound | inhibition |
| --- | --- |
| C[C@@H]1O[C@@H](Oc2c(-c3cc(O)c(O)c(O)c3)oc3cc(O)cc(O)c3c2=O)[C@@H](O)[C@H](O)[C@H]1O | 77.9% |
| CN1CCN(C(=O)c2ccc(-c3ccc4c(C=O)c(O)ccc4c3)s2)CC1 | 71.9% |
| CC[C@]12C=CCN3CC[C@@]4(c5cc([C@@]6(C(=O)OC)C[C@@H]7C[C@@H](C(C)(F)F)C[N@](CCc8c6[nH]c6ccccc86)C7)c(OC)cc5N(C)[C@H]4[C@@](O)(C(=O)OC)[C@@H]1OC(C)=O)[C@@H]32 | 97.2% |

Set 6
Target: Histone acetyltransferase KAT6A, winged helix 2, GST fusion (KAT6A, Homo sapiens, UniProt Q92794, residues 85-181)
Technique: protein binding microarray
Form: double-stranded DNA, one strand shown
Sample: in vitro
Tested at: not given
Notes: 8-mer, flanks averaged, mean of 2 arrays, mostly near background
Reference: not given
Reading: higher = stronger binding
Target sequence (chain): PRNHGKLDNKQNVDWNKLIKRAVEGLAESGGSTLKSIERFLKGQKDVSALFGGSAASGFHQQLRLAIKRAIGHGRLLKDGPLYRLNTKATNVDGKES
| Oligonucleotide | E-score |
| --- | --- |
| ATTGTTAC | -0.0679 |
| AAGGTCCC | -0.102 |
| GGCACTAC | -0.0291 |
| CCCCCGCA | 0.0787 |
| TCCGCAGA | 0.105 |
| CAGTGTTA | -0.0131 |
| CTTTGCGA | 0.123 |
| CAACGTGC | -0.17 |

Excerpt of the above (set 4):
| Oligonucleotide | log fluorescence |
| --- | --- |
| TTAGGTCGCGGTCTCGGTTAGTGCTAG | 0.334 z-score |
| TTAGGACTGGGACTTGGTTAGTGCTAG | -0.671 z-score |
| GATTTTTTAGCTTGCAAAAAGTGCTAG | 0.137 z-score |
| TTAGATATCAGTTTCGTTTAGTGCTAG | 8.78 z-score |
| GGTGTTTTCTAAACCATTGTGTGCTAG | 0.508 z-score |
| TTAGATTTCCGACTGGATTAGTGCTAG | 0.0755 z-score |
| TTAGATTTTGGGACTGGATTAGTGCTA | 0.159 z-score |
| GACGGATTGCTTATCCTGACGTGCTAG | -0.424 z-score |
